Published values from different studies.
Compare with care: the assays were run in different laboratories. Several values in a cell are separate wells, animals, samples, runs or records. ± marks the error that the study gave.

Under “log2 fold change”, `Cn1ncc2cc(-c3cncc(Cl)c3N3CCC4(CCNC4=O)CC3)ccc21` is recorded as -1.63 (LS174T; gene expression, microarray, refers to: MFN2 mRNA; concentration not given, 4 h; relative to: untreated cells).
The GI50 of `CCN(C(=O)c1cc(F)ccc1Oc1nncnc1N1CCC2(C1)CN([C@H](CCCN(C)CCOC)C(C)C)C2)C(C)C` is reported as greater than 10 µM (SK-N-AS; cell growth; 72 h).
Under “mean growth percent”, `O=C(C[Se]C(=O)c1cc2ccccc2s1)Nc1cccc(C(F)(F)F)c1` is recorded as -38.8% (NCI60 colon subpanel; cell growth; 10 µM, 48 h, one-dose).
`CNS(=O)(=O)Nc1nccc(Cc2c(C)c3ccc(Oc4ncccc4F)cc3oc2=O)c1F` gave an IC50 of greater than 1000 nM (MFM-223; cell viability; 7 days).
`N#Cc1cccc(/C=C/C(=O)c2ccc(O)cc2)c1` gave a fold change of 41.5 (U-87 MG; refers to: SORBS1; concentration not given; relative to: untreated).
`CNC(=O)CCN(Cc1ccc(C(F)F)cc1)C(=O)c1cc2c(OC)ccc(-c3ccc(=O)n(C)c3)c2s1` — result for “log2 fold change”: -3.03 (murine AML cells; BRD4 chromatin occupancy, ChIP-seq, refers to: BRD4 peak; concentration not given, chrX:93416871-93424332; relative to: drug over DMSO).
`COc1cc(C(=O)N2CC[C@@H](O)[C@@H](N)C2)cc2nc(-c3cc4cccnc4n3CC3CC3)n(C)c12` gave an inhibition of 81.6% and 58.3% and 79.3% and 72.2% (human neutrophils; protein citrullination, inhibitor, flow cytometry, refers to: citrullinated histone H3; 3.16 µM, together with: ionomycin).
`CN(C)c1ccc(-n2cc(COC(=O)[C@]3(C)C=C(C(=O)OC(C)(C)C)C(=O)CC3)nn2)cc1` has a pERK/ERK ratio of 0.19 (HeLa; quantitative western blot; concentration not given, 7 (unit not given), together with: EGF).
`O=C(C[Se]C(=O)c1cc2ccccc2[nH]1)Nc1cccc(C(F)(F)F)c1`: “mean growth percent” -34.6% (NCI60 colon subpanel; cell growth; 10 µM, 48 h, one-dose).
The inhibition of `COc1cccc2c1cc1c3c(cc4c(c32)OCO4)[C@@H]2c3c4c5c(cc6c(c5c5cccc(OC)c35)OCO6)CCN4[C@@H]2N1C` (racemic) is reported as less than 50% (H69AR, multidrug-resistant; cytotoxicity, MTT; 50 µg/mL, 48 h).
`CCN(CC)CC(=O)Nc1cccc(-n2cc(-c3ccc4ccc(-c5cn(-c6cccc(NC(=O)CN(CC)CC)c6)nn5)cc4c3)nn2)c1` has a fold regulation of -1.09 fold (RCC4; PCR angiogenesis array, refers to: TIE1; 5 x IC50, 2 h, normoxia; relative to: untreated).
`C1=[N+]2CCCC[N+]3=Cc4ccc5[n]4[Au-]23[n]2c1ccc2-c1nc2ccccc2nc1-5.F[P-](F)(F)(F)(F)F` has a TGI of 4 -log M (LOX IMVI; NCI60 five-dose screen).
`COc1ccc2c(c1)c(CC(=O)[Se]CC(=O)Nc1cccc(C(F)(F)F)c1)c(C)n2C(=O)c1ccc(Cl)cc1`: “mean growth percent” -55.5% (NCI60 colon subpanel; cell growth; 10 µM, 48 h, one-dose).
For `CCn1nc(Cl)c2c1-c1cnc(N)c(c1)O[C@H](C)c1cc(F)ccc1-c1nn(C)cc1C2`, the Emax was 68.9% (NCI-H3122 (EML4-ALK variant 1); cell viability).
With `C#CCOC(=O)[C@@]1(C)C=C(C(=O)Nc2cccc(C(=O)Nc3ccc(C)c(Nc4nccc(-c5cccnc5)n4)c3)c2)C(=O)CC1` the EC50 was roughly 500 nM (SH-SY5Y MKK7 ACT; c-Jun Ser73 phosphorylation, western blot; 6 h, together with: doxycycline).
`Cn1ncc(-c2ccc3c(=O)[nH]nc(CN)c3c2)c1-c1c(F)c(Cl)cc(OC2CC2)c1C#N` gave an IC50 of 200 nM (HOS; cell viability, inhibitor, CellTiter-Glo; 120 h, baseline-subtracted).
For `COc1cccc(OC)c1-c1cc(C(=O)NC2(C(=O)O)C3CC4CC(C3)CC2C4)nn1-c1ccc(C(=O)N(C)CCOCCN(C)C(=O)[C@H](CCCCNC(=O)[C@H](CC(C)C)NC(=O)C2OC2C(=O)O)NC(=O)CN2CCN(CC(=O)[O-])CCN(CC(=O)[O-])CCN(CC(=O)[O-])CC2)cc1C(C)C.[177Lu+3]` (mixture of isomers), the surface-bound fraction was 3.19 ± 0.32% (HT-29; concentration not given, 120 min; relative to: added activity).
For `O=C(O)C1OC(Oc2cc(-c3oc4cc(O)ccc4c(=O)c3O)ccc2O)C(O)C(O)C1O` (centres unmarked), the Jmax was 15.2 ± 1.06 pmol/mg/min (MDCKII-UGT1A1/MRP2 cells; glucuronide efflux, substrate).
With `Cn1c(=O)n(C2CCC(=O)NC2=O)c2ccc(C3CCN(CC(=O)Nc4cccc(CS(=O)(=O)N5CC[C@H](Nc6cccc(-c7sc(C(=O)O)c(OCC(=O)O)c7Cl)c6)CC5(C)C)c4)CC3)cc21` (some centres unmarked) the fold change was 1.19 and 1.17 and 1.18 and 1.12 (B16-F10; HTRF, refers to: phospho-STAT1 Tyr701; 0.005 µM, together with: IFN-γ; relative to: DMSO).
`CN(C)CCN1CCN(c2ccc3nc(-c4ccc5nc(-c6ccc(C(F)(F)F)cc6)[nH]c5c4)[nH]c3c2)CC1` has a growth percent of 64.4% (SN12C; SRB; 10 µM, 48 h).
`O=C1Nc2ccccc2C1(c1c[nH]c2ccccc12)c1c[nH]c2ccccc12`: IL-6 induction “increased” (human monocytes; 5 µM; relative to: DMSO).
With `NC(Cc1ccccc1)C(=O)N1CC(=Cc2ccc(Cl)c(Cl)c2)C(=O)C(=Cc2ccc(Cl)c(Cl)c2)C1` (centres unmarked) the EC50 was 1500 nM (BRD4-HiBiT cells; BRD4 degradation rescue, inhibitor; 8 h, 50% degradation rescued, together with: dBET6 500 nM).
Under “mean growth percent”, `CC(=O)Oc1ccccc1C(=O)[Se]CC(=O)Nc1cccc(C(F)(F)F)c1` is recorded as -10.2% (NCI60 colon subpanel; cell growth; 10 µM, 48 h, one-dose).
For `Cc1ncsc1-c1ccc(C(C)NC(=O)C2CC(O)CN2C(=O)C(NC(=O)CCCCCCCCCCN2CCCC(Nc3ncc(Cl)c(Nc4ccccc4S(=O)(=O)C(C)C)n3)C2)C(C)(C)C)cc1` (centres unmarked), “log2 fold change” read -4.78 (22Rv1; RNA-seq, refers to: SRMS mRNA; concentration not given; relative to: DMSO).
`CCOc1cncc(-c2ccc(NC(=O)C3(c4ccnc(NS(=O)(=O)C5CC5)n4)CCOCC3)nc2)n1` has an IC50 of 3020 nM (U-266; cell growth or viability, ATP luminescence; 72 h).
`Cc1cc(Cl)cc(-c2ccnc3cc(CN4C(=O)C5C(C4=O)C5(C)C)sc23)c1C[C@@H]1CNCCO1` (some centres unmarked) gave an apoptotic cells of 11.1% (CHP-212 resistant; annexin V/PI flow cytometry; 0.3 µM, 48 h).
Under “JC-1 aggregate cells”, `CCNc1cc2c(cc1C)C1(c3cc(C)c(NCC)cc3O2)c2ccccc2C(=O)N1N=Cc1c[c-]c(-c2ccccn2)cc1.Cc1c(C)c(-c2ccc(-c3ccccc3)cc2)[c-](C)c1C.[Cl-].[Ir+3]` is recorded as 96.24 ± 0.6% (A549; flow cytometry; 1.0×IC50, 24 h).
With `COC(=O)c1cc(NC2=NC(=O)C(=Cc3ccc(N(C)C)cc3)S2)ccc1OC(C)=O` the metabolite level was -0.58 fold change (MCF7; GC-MS, refers to: D-Mannose; 1 µM; relative to: DMSO).
`COc1cc(/C=C/C(=O)/C=C(O)/C=C/c2ccc(OCC(=O)N3CCOCCOCCOCCOCCOCC3)c(OC)c2)ccc1OCC(=O)N1CCOCCOCCOCCOCCOCC1` has an inhibition of 100% (SK-LU-1; cell growth or viability, SRB; 25 µM).
`CC(C)c1ccc(N(C)c2ccc3c(c2)OCC[C@H]3CNc2cnccc2C(=O)O)cc1` gave an IC50 of 17.6 nM (Granta-519; cell growth or viability, ATP luminescence; 7 days).
`C=CC(=O)N1CCCC(n2c(=O)c3ncccc3n(Cc3ccc(Oc4ccccc4)cc3)c2=O)C1` (centres unmarked) — result for “log2 fold change”: -2.41 (Rec1; refers to: IGKV3-20; concentration not given; relative to: untreated).
`COc1cc([C@@H]2O[C@@H](c3cc(OC)c(O[C@@H]4O[C@H](CO)[C@@H](O)[C@H](O)[C@H]4O)c(OC)c3)[C@H](CO)[C@H]2CO)cc(OC)c1O`: “intracellular triglyceride level” “decreased” (3T3-L1 pre-adipocytes; 5 to 20 µM, 48 h).
For `CC(C)n1nc(C(F)F)cc1C(=O)Nc1ccc([C@H]2[C@@H](O)CCCc3cncn32)c(-c2ccccc2)c1`, the EC50 was 40.1 nM (BRD4-HiBiT cells; BRD4 degradation rescue, inhibitor; 24 h, together with: dBET6 500 nM).
`CN1CCCNC(=O)c2cccc(c2)C(=O)NCCCN(C)CCCNc2cccc3c2C(=O)c2cccc(c2C3=O)NCCC1`: “log2 fold change” -2.18 (SAS; RNA-seq, refers to: MT-ND3 mRNA; 1 µM, 6 h; relative to: untreated cells).
`COc1ccc(NC(=O)c2ccc3[nH]c(-c4ccc(N(C)C)cc4)nc3c2)cn1` — result for “dead cell to confluence ratio”: 2.71 and 37 and 5.43 (HCEC-hTERT; IncuCyte; concentration not given, 8 h).
